Measurements from different studies.
Each line is one published result; not all experiments were run side by side. ± marks the error that the study gave.
T1: RNA aptamer A50U; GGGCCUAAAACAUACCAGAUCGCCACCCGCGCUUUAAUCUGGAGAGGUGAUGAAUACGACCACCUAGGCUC
Chain of UniProt P23141 (whole entry, looked up): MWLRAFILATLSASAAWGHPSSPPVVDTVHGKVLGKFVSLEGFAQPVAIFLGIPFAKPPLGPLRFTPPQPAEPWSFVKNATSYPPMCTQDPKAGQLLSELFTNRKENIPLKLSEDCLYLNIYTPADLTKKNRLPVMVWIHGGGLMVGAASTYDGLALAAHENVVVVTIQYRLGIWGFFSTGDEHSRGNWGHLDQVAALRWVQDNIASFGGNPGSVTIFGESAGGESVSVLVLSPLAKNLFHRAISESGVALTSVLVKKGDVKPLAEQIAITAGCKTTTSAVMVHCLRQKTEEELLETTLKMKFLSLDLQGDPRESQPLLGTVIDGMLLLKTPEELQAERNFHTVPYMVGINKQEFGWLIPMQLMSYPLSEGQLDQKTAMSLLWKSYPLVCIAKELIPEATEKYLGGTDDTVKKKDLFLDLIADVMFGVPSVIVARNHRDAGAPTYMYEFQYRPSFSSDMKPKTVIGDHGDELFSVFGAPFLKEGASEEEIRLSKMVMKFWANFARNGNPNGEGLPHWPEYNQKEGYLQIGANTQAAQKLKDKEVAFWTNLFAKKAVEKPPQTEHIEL
Chain of UniProt P28907 (whole entry, looked up): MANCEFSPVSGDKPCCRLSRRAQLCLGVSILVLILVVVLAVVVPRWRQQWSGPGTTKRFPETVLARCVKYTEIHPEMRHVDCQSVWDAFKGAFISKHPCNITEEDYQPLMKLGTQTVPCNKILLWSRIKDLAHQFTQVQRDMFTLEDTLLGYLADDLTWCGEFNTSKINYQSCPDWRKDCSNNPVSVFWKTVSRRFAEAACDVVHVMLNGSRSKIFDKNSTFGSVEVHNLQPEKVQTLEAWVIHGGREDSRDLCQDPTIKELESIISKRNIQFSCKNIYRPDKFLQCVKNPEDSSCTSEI
Chain of UniProt P35355 (whole entry, looked up): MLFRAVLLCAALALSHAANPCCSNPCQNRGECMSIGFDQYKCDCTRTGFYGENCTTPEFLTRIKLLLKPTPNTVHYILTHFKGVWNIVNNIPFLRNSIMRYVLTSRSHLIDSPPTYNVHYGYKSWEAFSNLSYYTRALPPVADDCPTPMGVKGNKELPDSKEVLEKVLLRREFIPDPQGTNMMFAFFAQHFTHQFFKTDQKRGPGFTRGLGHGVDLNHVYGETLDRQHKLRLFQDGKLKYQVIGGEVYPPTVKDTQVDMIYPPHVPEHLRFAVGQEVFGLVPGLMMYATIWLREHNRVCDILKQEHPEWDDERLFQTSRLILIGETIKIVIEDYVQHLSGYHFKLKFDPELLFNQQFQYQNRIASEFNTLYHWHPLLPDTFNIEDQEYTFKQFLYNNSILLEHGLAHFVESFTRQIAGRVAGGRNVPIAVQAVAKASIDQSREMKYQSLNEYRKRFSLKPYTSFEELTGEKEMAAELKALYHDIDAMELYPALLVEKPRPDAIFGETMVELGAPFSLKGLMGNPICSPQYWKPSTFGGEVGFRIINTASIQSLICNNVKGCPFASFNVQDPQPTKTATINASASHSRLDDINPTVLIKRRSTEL
Chain of UniProt Q9Y243 (whole entry, looked up): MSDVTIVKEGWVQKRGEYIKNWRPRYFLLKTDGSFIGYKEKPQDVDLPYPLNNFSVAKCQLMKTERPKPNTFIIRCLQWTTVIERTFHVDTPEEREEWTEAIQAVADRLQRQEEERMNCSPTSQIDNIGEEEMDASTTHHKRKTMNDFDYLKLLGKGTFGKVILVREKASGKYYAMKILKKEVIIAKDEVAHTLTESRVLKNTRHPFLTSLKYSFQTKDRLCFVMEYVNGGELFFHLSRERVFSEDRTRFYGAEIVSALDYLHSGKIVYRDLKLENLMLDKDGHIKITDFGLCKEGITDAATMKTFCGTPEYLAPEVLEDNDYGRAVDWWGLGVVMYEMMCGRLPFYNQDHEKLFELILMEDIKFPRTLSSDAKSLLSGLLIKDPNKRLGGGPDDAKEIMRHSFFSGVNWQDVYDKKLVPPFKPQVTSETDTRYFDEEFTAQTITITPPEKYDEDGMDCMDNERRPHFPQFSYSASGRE
Chain of UniProt P58418 (whole entry, unmodified, looked up): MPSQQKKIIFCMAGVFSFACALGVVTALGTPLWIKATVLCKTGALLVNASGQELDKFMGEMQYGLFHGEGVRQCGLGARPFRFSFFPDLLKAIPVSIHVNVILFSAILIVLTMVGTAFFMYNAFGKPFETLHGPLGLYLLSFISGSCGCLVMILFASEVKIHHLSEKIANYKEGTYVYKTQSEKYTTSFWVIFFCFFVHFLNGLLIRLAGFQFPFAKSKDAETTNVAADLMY
Chain of UniProt Q16539 (whole entry, looked up): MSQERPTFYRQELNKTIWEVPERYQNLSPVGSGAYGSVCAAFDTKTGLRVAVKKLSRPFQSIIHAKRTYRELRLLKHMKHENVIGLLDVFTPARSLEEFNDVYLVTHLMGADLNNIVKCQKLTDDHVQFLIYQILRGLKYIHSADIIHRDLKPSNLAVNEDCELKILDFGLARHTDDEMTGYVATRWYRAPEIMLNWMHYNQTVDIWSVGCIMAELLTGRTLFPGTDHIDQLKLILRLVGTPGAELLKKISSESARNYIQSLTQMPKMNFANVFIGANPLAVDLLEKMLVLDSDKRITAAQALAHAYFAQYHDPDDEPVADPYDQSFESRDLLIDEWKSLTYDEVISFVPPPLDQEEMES
Chain of UniProt Q9NS87 (whole entry, looked up): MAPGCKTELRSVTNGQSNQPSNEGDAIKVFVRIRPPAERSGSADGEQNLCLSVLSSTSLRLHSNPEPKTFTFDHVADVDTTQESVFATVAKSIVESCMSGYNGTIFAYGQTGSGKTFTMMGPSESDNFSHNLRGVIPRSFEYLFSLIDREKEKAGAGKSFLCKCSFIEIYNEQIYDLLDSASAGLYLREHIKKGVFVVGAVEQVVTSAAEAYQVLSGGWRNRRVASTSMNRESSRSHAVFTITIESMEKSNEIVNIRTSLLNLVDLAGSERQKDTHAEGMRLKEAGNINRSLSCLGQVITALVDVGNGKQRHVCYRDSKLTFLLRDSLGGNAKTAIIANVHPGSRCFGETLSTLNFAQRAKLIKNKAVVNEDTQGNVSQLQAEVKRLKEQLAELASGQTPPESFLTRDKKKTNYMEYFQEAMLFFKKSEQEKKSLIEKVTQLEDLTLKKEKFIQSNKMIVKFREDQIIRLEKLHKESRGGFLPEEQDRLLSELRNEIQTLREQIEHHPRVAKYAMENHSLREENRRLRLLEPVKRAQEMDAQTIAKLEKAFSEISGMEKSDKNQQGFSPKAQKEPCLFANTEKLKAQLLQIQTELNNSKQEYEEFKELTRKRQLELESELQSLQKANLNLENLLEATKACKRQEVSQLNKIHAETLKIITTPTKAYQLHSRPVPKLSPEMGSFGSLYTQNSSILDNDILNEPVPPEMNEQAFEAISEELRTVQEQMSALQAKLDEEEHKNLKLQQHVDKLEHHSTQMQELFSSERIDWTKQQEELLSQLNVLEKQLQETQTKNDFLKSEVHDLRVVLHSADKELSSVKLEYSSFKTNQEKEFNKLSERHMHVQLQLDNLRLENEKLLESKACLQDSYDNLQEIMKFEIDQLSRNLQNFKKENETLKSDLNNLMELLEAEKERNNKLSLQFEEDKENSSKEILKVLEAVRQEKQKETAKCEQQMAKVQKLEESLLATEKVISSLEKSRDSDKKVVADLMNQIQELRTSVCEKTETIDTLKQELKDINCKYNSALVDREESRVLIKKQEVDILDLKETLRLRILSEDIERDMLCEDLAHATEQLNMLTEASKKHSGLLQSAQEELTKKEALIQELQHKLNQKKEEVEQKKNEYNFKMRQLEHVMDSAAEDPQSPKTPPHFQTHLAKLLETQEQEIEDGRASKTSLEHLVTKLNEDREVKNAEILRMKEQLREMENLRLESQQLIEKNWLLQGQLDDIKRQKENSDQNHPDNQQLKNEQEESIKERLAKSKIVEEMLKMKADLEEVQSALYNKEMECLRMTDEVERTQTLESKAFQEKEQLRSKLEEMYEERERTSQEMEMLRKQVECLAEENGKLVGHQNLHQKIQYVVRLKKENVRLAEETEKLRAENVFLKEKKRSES

| SMILES | target | assay | system | setting | how to read | endpoint | result |
| --- | --- | --- | --- | --- | --- | --- | --- |
| CC(=O)NCCN(CC(=O)NCCN(CC(=O)NCCN(CC(=O)NCCC(N)=O)C(=O)[C@@H](N)CCCNC(=N)N)C(=O)[C@@H](N)CCCCN)C(=O)[C@@H](N)Cc1ccccc1 | HIV-1 TAR RNA | – | – | extrapolated to 1 M KCl | – | non-electrostatic ΔG° | -6.18 ± 0.167 kcal/mol |
| OCCn1nc(-c2ccccc2)c2c(Cl)c(-c3ccccc3)nnc21 | Clarin-1 (CLRN1, Homo sapiens, UniProt P58418, N48K) | CLRN1 N48K expression | D6 | 0.5 h exposure then 24 h in compound-free medium | – | EC90 | 15 µM |
| CC1=CC(C)(C)N=C(Nc2nc(C)c3cc(C)cc(C)c3n2)N1 | ADP-ribosyl cyclase/cyclic ADP-ribose hydrolase 1 (CD38, Homo sapiens, UniProt P28907) | hydrolase activity, fluorometric | – | 50 µM, together with: ε-NAD+ substrate | relative to: untreated | remaining activity | 22.7 ± 0.4% |
| N[C@@H](Cc1ccc(O)c(O)c1)C(=O)O | polyphenol oxidase Crocus sativus | substrate | dormant corm enzyme | pH 6.8 | – | Km | 4.87 mM |
| CNC(=O)c1ccc2c(c1)N(C)S(=O)(=O)c1cnc(SC)nc1-2 | Kinesin-like protein KIF15 (Homo sapiens, UniProt Q9NS87) | microtubule-dependent ATPase activity | – | 30 µM, together with: ATP 2 mM, microtubules | – | kcat | 8.1 ± 5 s^–1 |
| CS(=O)(=O)c1ccc(-n2nc(C(F)(F)F)cc2-c2ccc([123I])cc2)cc1 | Prostaglandin G/H synthase 2 (Ptgs2, Rattus norvegicus, UniProt P35355) | SPECT | rat Sprague-Dawley, carrageenan paw | – | relative to: inflamed over noninflamed paw | uptake ratio | 1.7 fold |
| Cc1cc(=O)oc2cc3c(c(C)c12)C(=O)c1c(O)cccc1C3=O | mushroom tyrosinase | enzyme activity | – | 25 µg/mL, together with: L-DOPA | – | inhibition | 21.7 ± 0.65% |
| C=CCC1NC(=O)C=CC(=O)NC(C(N)=O)CCNC(=O)C(CCCNC(=O)c2cnccn2)NC(=O)C(Cc2ccco2)NC1=O (stereo not drawn) | RAC-gamma serine/threonine-protein kinase (AKT3, Homo sapiens, UniProt Q9Y243) | DNA-templated library selection | – | one selection round | – | enrichment factor | 0.97 |
| CC(=O)NCCN(CC(=O)NCCN(CC(=O)NCCN(CC(=O)NCCC(N)=O)C(=O)C[C@@H](N)CCCNC(=N)N)C(=O)C[C@@H](N)CCCCN)C(=O)C[C@@H](N)Cc1ccccc1 | HIV-1 TAR RNA | – | – | 25 °C | – | binding free energy ΔG° | -8.39 ± 0.311 kcal/mol |
| O=C(c1ccco1)N1CCN(Cc2ccc3c(c2)OCO3)CC1 | Mitogen-activated protein kinase 14 (MAPK14, Homo sapiens, UniProt Q16539) | enzyme activity | – | – | – | ligand efficiency | 0.14 |
| C[C@H]1c2cccc(O)c2C(=O)C2=C(O)[C@]3(O)C(=O)C(C(N)=O)=C(O)[C@@H](N(C)C)[C@@H]3[C@@H](O)[C@@H]21 | T1, RNA aptamer A50U | fluorescence titration | – | pH 7.5, 25 °C, MgCl2 10 mM | – | Kd | 10.5 µM |
| CCCC(=O)Nc1ccc(OC)nc1C | Liver carboxylesterase 1 (CES1, Homo sapiens, UniProt P23141) | substrate | – | 50 µM, pH 8, 37 °C, enzyme purity 25% | – | specific activity | 6.8 pmol/min/µg |

A few entries again:
| SMILES | target | assay | system | setting | how to read | endpoint | result |
| --- | --- | --- | --- | --- | --- | --- | --- |
| CS(=O)(=O)c1ccc(-n2nc(C(F)(F)F)cc2-c2ccc([123I])cc2)cc1 | Prostaglandin G/H synthase 2 (Ptgs2, Rattus norvegicus, UniProt P35355) | SPECT | rat Sprague-Dawley, carrageenan paw | – | relative to: inflamed over noninflamed paw | uptake ratio | 1.7 fold |
